Measurements gathered from unrelated publications.
Each line is one published result; not all experiments were run side by side. “And” joins repeats or separate records; there may be more than shown. ± gives the spread as reported.
CA12: Carbonic anhydrase 12 (CA12, Homo sapiens, UniProt O43570)
Sodium- and chloride-dependent glycine transporter 2: Sodium- and chloride-dependent glycine transporter 2 (Homo sapiens, UniProt Q9Y345)
Gria1/Gria2: Glutamate receptor AMPA 1/2 (Gria1/Gria2, Rattus norvegicus, UniProt P19490+P19491)
IFIT3: Interferon-induced protein with tetratricopeptide repeats 3 (IFIT3, Homo sapiens, UniProt O14879)

COC(=O)[C@@]1(C)C=C(C(=O)Nc2cccc(C(=O)Nc3ccc(Nc4nccc(-c5cccnc5)n4)c(C)c3)c2)C(=O)CC1 — remaining activity (MAPK1 (Homo sapiens, UniProt P28482); enzyme activity, inhibitor; 1.646 µM, unit not given; baseline: vehicle): 0.996 and 0.986 and 0.881
N#Cc1cnc2sc(C(=O)O)cc2c1N1CCc2[nH]nc(C(=O)N[C@@H](CC(=O)NCCOCCN3CCOCC3)c3cccc(Br)c3)c2C1 — remaining activity (Interleukin-1 receptor-like 2 (IL1RL2, Homo sapiens, UniProt Q9HB29); SEAP reporter gene, antagonist; HEK-Blue IL-36R cells; 1.23 µM, 6 h, with: IL-36β 0.003 ng/mL; baseline: untreated): 99%
COc1cc2nc(Cl)nc(Nc3ccc(Oc4cccc(-c5ccccc5)c4)cc3)c2cc1OC — activity (SMUG1 (Homo sapiens, UniProt Q53HV7); enzyme activity, activator, fluorescence; 20 µM; baseline: control): 860 ± 300%
C#CCOC(=O)[C@]1(C)C=C(C(=O)OC(C)(C)C)C(=O)CC1 — normalized kinase activity (MAPK8 (Homo sapiens, UniProt P45983); enzyme activity, D-SENSOR; 14.81 µM, mean of replicates): 0.877
CC(=O)Nc1ccc(F)cc1-c1ccncc1 — inhibition after jump dilution (Uridine nucleoside ribohydrolase (Trichomonas vaginalis, UniProt A2FTT0); enzyme activity, 19F NMR; 200 µM, 1-fold dilution): 100%
CC[C@H](C)[C@H](NC(=O)[C@@H](N)CCC(N)=O)C(=O)N[C@@H](CCCNC(=N)N)C(=O)N[C@@H](CO)C(=O)N[C@@H](Cc1c[nH]cn1)C(=O)N[C@@H](COP(=O)(O)O)C(=O)N[C@@H](Cc1ccc(O)cc1)C(=O)N[C@@H](CC(C)C)C(=O)N[C@@H](CCCNC(=N)N)C(=O)N[C@@H](C)C(=O)N[C@H](C(=O)N[C@@H](CO)C(=O)N[C@@H](CCC(=O)O)C(=O)N[C@H](C(=O)N[C@@H](CO)C(=O)O)C(C)C)C(C)C — ΔH (Membrane-associated guanylate kinase, WW and PDZ domain-containing protein 2 (Magi2, Mus musculus, UniProt Q9WVQ1); binding, ITC; pH 8.0, 25 °C): -12.7 ± 0.14 kcal/mol
CCOC(=O)c1ccc2c(c1)C1CC(C)(N2)c2c(C)nc3ccc(C(=O)OCC)cc3c21 (single isomer, unassigned) — kon (Glideosome-associated protein 50 (GAP50, Plasmodium falciparum, UniProt Q8I2X3); surface plasmon resonance): 2710 M⁻¹ s⁻¹
CCCCCCCCCCCCCCCC(=O)NCCCC[C@H](NC(=O)[C@H](CCC(=O)O)NC(=O)[C@H](Cc1ccc(O)cc1)NC(=O)[C@H](CCC(=O)O)NC(=O)COCC(=O)NCCCOCCOCCOCCCNC(=O)[C@H](Cc1c[nH]c2ccccc12)NC(=O)[C@H](CCCCN)NC(=O)[C@H](C)NC(=O)[C@H](CCCCNC(=N)N)NC(=O)[C@H](CCC(N)=O)NC(=O)[C@H](Cc1c[nH]cn1)NC(=O)[C@H](CCSC)NC(=O)[C@H](CC(C)C)NC(=O)[C@H](CCC(N)=O)NC(=O)[C@@H](NC(=O)[C@H](CCC(=O)O)NC(=O)C(C)(C)NC(=O)[C@@H](NC(=O)C(C)(C)N)C(C)C)[C@@H](C)CC)C(=O)N[C@@H](CCC(=O)O)C(=O)N[C@@H](Cc1ccc(O)cc1)C(=O)N[C@@H](CCC(=O)O)C(N)=O — cAMP luminescence AUC (PTH1R (Homo sapiens, UniProt Q03431); agonist; Saos-2 with cAMP reporter; 31.6 pM, 90 min, washout after 30 min ligand; higher = more cAMP): 108 a.u.
N#CSCCCCCCOc1ccc2c(-c3ccccc3)cc(=O)oc2c1 — selectivity ratio (CA12; stopped-flow CO2 hydration; baseline: Ki CA II over Ki CA XII): > 794
CCCCCCCO[C@H]1O[C@H](CO)[C@@H](O)[C@H](O)[C@@H]1O — ΔG (Type 1 fimbrin D-mannose specific adhesin, lectin domain (fimH, Escherichia coli K-12, UniProt P08191); binding, isothermal titration calorimetry; 25 °C, individual direct titrations): -10.3 kcal/mol
N=C(N)NCCS(=O)(=O)O — normalised MST signal (SLC6A6 (Homo sapiens, UniProt P31641, Y138A); binding, microscale thermophoresis; 61 nM, room temperature, with: 50 nM labelled protein; higher = more binding): 0.00114
O=C1c2sc(-c3ccc(N4CCC(CO)CC4)nc3F)nc2CCN1c1cccnc1 — specific binding (TAR DNA-binding protein 43, aggregated (TARDBP, Homo sapiens, UniProt Q13148); radioligand binding; human, FTLD-TDP type B sarkosyl-insoluble extract; 102.04 nM): 1.5 nM and 2.23 nM
CN(Cc1cc(C2CC2)on1)C(=O)c1cccc(-c2ccc3c(c2)CCO3)c1 — reaction rate (Acetyl-coenzyme A synthetase 2 (ACS2, Candida albicans, UniProt Q8NJN3); enzyme activity, inhibitor, coupled pyrophosphate; 5 µM; higher is more activity): 0.00309 a.u.
CC1CC(C)CN(CCOCCSc2ccccc2)C1 (stereo not drawn) — relative translation (Trypanosoma cruzi; reporter mRNA translation, inhibitor, measured: capped polyadenylated Renilla luciferase mRNA; cell-free extract; concentration not given; baseline: control RNA): 107%
CC(=O)c1cnc(NS(=O)(=O)c2ccc(C(F)(F)F)c(Cl)c2)nc1 — oxidized product ratio (17-beta-hydroxysteroid dehydrogenase 13 (Homo sapiens, UniProt Q7Z5P4); enzyme activity; human hepatocytes, HSD17B13 siRNA, culture medium; 48 h; baseline: scramble siRNA control): 0.234 and 0.244 and 0.274
CC1=CC(C)=[N+]2C1=C(CCCCN1CCCC(O)C1)c1c(C)cc(C)n1[B-]2(F)F (stereo not drawn) — remaining specific binding (Sodium- and chloride-dependent glycine transporter 2; MS binding competition; 10 µM): 85.7 ± 4.6%
OC[C@@H]1[C@@H](O)[C@H](O)[C@@H](O)c2nccn21 — binding stoichiometry (bglA (Thermotoga maritima, UniProt Q08638); ITC; concentration not given, pH 5.8, 25 °C): 1.02 ± 0.07
COC(=O)Cc1cc2c(cc1C(=O)c1ccccc1Br)OCO2 — current amplitude after recovery (Gria1/Gria2; glutamate-evoked current, whole-cell patch clamp; HEK-293T; concentration not given, glutamate alone after washout, with: glutamate): 518 ± 32 pA
CCCCCC(O)/C=C/C=O (stereo not drawn) — isoTOP-ABPP competition ratio (IFIT3; competitive isoTOP-ABPP; proteome, soluble, MDA-MB-231; 100 µM, 60 min, with: iodoacetamide probe; baseline: DMSO over compound-treated, higher = stronger cysteine blockade): 1.5
COCCOc1cc2ncnc(Nc3cccc(-c4cn(-c5ccccc5S(N)(=O)=O)nn4)c3)c2cc1OCCOC — selectivity ratio (CA12; baseline: Ki hCA II over Ki hCA XII): 0.18
Cn1cc(-c2cc(N3CCCCS3(=O)=O)ccc2N[C@H]2CC[C@H](C)CC2)c2cc[nH]c2c1=O (stereo in doubt) — remaining binding (BRD9 (Homo sapiens, UniProt Q9H8M2); binding, competition with immobilised ligand; 1 µM): 96%
O=C(C1CCCN(Cc2ccc(Cl)cc2)C1)N1CCCCC1.O=C(O)C(=O)O (stereo not drawn) — relative translation (Trypanosoma cruzi; reporter mRNA translation, inhibitor, measured: capped polyadenylated Renilla luciferase mRNA; cell-free extract; concentration not given; baseline: control RNA): 110%
COC(=O)Cc1cc2c(cc1C(=O)c1ccccc1)OCO2 — deactivation time constant (Gria1/Gria2; glutamate-evoked current, whole-cell patch clamp; HEK-293T; concentration not given, weighted tau, 1 ms pulse, with: glutamate): 2.3 ± 0.2 ms
CCCCCC=CC=C1C(=O)C=CC1CC=CCCCC(=O)O (stereo not drawn) — isoTOP-ABPP competition ratio (IFIT3; competitive isoTOP-ABPP; proteome, soluble, MDA-MB-231; 100 µM, 60 min, with: iodoacetamide probe; baseline: DMSO over compound-treated, higher = stronger cysteine blockade): 7.7
CC1=CC(C)=[N+]2C1=C(CCCN1CCCC(C(=O)O)C1)c1c(C)cc(C)n1[B-]2(F)F (stereo not drawn) — remaining specific binding (Sodium- and chloride-dependent glycine transporter 2; MS binding competition; 10 µM): 81.6 ± 1.6%
CC(C)Oc1cc(Cl)ccc1CNc1cc(-c2ccccc2)nc2ncnn12 — cAMP luminescence (GPR3 (Homo sapiens, UniProt P46089, V155A); cAMP level, cAMP GloSensor; 10 µM; higher = more cAMP): 2560 a.u. and 2530 a.u. and 2160 a.u. and 2380 a.u.
C=CC(=O)N1CCCC(n2c(=O)c3ncccc3n(Cc3ccc(Oc4ccccc4)cc3)c2=O)C1 (stereo not drawn) — melting temperature shift (26S proteasome regulatory subunit 6A (Homo sapiens, UniProt P17980); thermal proteome profiling, measured: PSMC3; unit not given; baseline: vehicle): -3.87
CCCCCCCCCCCCCCCc1cccc(OCC)c1C(=O)Nc1ccc(Cl)c(C(F)(F)F)c1 — SPR binding response (KAT5 (Homo sapiens, UniProt Q92993); SPR; 0.0078 µM; higher = more binding): 0.138 RU
O[C@@H]1[C@@H](O)[C@H](F)C=C[C@H]1O — kinact (GBA1 (Homo sapiens, UniProt P04062); enzyme activity, inhibitor; pH 5.2): 0.002 s⁻¹
O=C(O)Cc1cc2c(cc1C(=O)c1cccc(Cl)c1)OCO2 — desensitization time constant (Gria1/Gria2; glutamate-evoked current, whole-cell patch clamp; HEK-293T; concentration not given, weighted tau, 500 ms pulse, with: glutamate): 3.1 ± 0.2 ms

Repeated from above:
CCCCCCCCCCCCCCCC(=O)NCCCC[C@H](NC(=O)[C@H](CCC(=O)O)NC(=O)[C@H](Cc1ccc(O)cc1)NC(=O)[C@H](CCC(=O)O)NC(=O)COCC(=O)NCCCOCCOCCOCCCNC(=O)[C@H](Cc1c[nH]c2ccccc12)NC(=O)[C@H](CCCCN)NC(=O)[C@H](C)NC(=O)[C@H](CCCCNC(=N)N)NC(=O)[C@H](CCC(N)=O)NC(=O)[C@H](Cc1c[nH]cn1)NC(=O)[C@H](CCSC)NC(=O)[C@H](CC(C)C)NC(=O)[C@H](CCC(N)=O)NC(=O)[C@@H](NC(=O)[C@H](CCC(=O)O)NC(=O)C(C)(C)NC(=O)[C@@H](NC(=O)C(C)(C)N)C(C)C)[C@@H](C)CC)C(=O)N[C@@H](CCC(=O)O)C(=O)N[C@@H](Cc1ccc(O)cc1)C(=O)N[C@@H](CCC(=O)O)C(N)=O — cAMP luminescence AUC (PTH1R (Homo sapiens, UniProt Q03431); agonist; Saos-2 with cAMP reporter; 31.6 pM, 90 min, washout after 30 min ligand; higher = more cAMP): 108 a.u.
O[C@@H]1[C@@H](O)[C@H](F)C=C[C@H]1O — kinact (GBA1 (Homo sapiens, UniProt P04062); enzyme activity, inhibitor; pH 5.2): 0.002 s⁻¹
